Results from different studies.
Numbered parts are unrelated; each lists some results of a single study.

Study 1 — method: protein-binding microarray; form: double-stranded DNA, one strand shown; medium: in vitro; concentration: 2200 nM top; notes: 60-bp whole probe; together with: salmon DNA 0.4 mg/ml; relative to: random background probes; reading: higher = stronger binding; all sequences stand within: GCCTAGCAC … GTCTTGATTCGCTTGACGCTGCTG
Target: Interferon regulatory factor 7, full length, phosphomimetic (IRF7, Homo sapiens, UniProt Q92985, residues 1-503, S471D/S472D/S475D/S476D/S477D/S483D/S484D/S487D)
Construct (chain): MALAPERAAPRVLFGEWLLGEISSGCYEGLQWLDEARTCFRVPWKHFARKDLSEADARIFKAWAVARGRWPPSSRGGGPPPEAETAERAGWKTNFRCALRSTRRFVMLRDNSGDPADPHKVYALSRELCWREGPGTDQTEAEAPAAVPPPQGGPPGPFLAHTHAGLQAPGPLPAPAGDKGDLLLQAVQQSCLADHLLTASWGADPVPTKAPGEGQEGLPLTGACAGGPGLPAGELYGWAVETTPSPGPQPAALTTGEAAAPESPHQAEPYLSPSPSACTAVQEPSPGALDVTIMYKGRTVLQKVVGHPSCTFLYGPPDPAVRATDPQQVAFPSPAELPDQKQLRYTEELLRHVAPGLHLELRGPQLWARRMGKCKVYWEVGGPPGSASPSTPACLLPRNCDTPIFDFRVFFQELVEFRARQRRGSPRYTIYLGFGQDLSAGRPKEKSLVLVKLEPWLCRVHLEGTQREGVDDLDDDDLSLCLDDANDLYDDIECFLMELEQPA
Strand	fitted relative affinity [z-score]
GACGATTTCTGACTGGAGACGTGCTAG	0.602
TTAGGACTGGACTATCGGTTGGTGCTA	-0.165
GTTGAGTTCTGTTGCAAAGGGTGCTAG	0.517
TATGTCTGGCCCAAGCAGCCGTGCTAG	-0.455
GACGCTTTCGACACTGGGGACGTGCTA	3.49
GACCGTTTCGACACTGGGGACGTGCTA	2.18
TTAGGTATCGGTATCGGTGAGTGCTAG	0.634
TTAGATATCATTCTCGATTAGTGCTAG	0.625
TTCTGATCCATTTTGGTTTTGTGCTAG	1.64
GAAAATCCCACATTTGATAAAGTGCTA	0.364
TCATCTTTCACTGCTCCCACTGTGCTA	2.73
TTAGGTATCCTGATCCTTTAGTGCTAG	0.392
TTCTATGTCTGTTTTTGCTTGTGCTAG	1.83
GACGAACTGGGGTTTCCAGACGTGCTA	-0.0667
TCATTTCCATTTTCTAAAACTGTGCTA	3.88
GTCCTTTTCTTTACTGATGGGTGCTAG	1.88
GACGGTTTCGACACTGGGGGCGTGCTA	3.08
TACGGTTTCGGTTTCGGGACGTGCTAG	14.8
AACGGTATCGGGTTTCGGGACGTGCTA	1.88

Study 2 — method: competition protein-binding microarray; form: double-stranded DNA, one strand shown; medium: in vitro; concentration: 2 µM; together with: Cbf1 competitor, 0.05 µM; reading: higher = stronger binding; all sequences stand within: … GTCTTGATTCGCTTGACGCTGCTG
Target: Phosphate system positive regulatory protein PHO4, full length, GST-tagged (PHO4, Saccharomyces cerevisiae, UniProt P07270, residues 1-312)
Notes: whole 60-bp probe, lowest competitor level
Construct (chain): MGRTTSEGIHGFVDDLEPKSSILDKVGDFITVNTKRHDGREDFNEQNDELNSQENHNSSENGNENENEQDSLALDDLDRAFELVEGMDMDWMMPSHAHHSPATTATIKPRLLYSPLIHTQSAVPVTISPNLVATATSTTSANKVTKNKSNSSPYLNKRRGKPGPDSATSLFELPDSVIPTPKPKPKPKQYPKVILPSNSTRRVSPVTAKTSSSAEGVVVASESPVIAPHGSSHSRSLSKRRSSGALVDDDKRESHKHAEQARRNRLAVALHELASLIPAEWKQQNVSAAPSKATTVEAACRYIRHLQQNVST
Strand	fluorescence intensity [a.u.]
CGTCCCCCACCATGTCGCGTGTGAAGAATTGTGGGT	7930
AGTAAAAGCCACCTTTCCGTGGGTAATCCGCTGAAA	4080
CGGGGTTAAGTTTGCGCAGTGGGTGGCTTGCAGCAG	4900
GTCCTTTGCCTCTACCTCGTGCTTTCTCTTGCCATG	11100
GGTTTTCTTTTTTGGAATGTGATATATATACATATT	5910
AAAGCGGTAATTTGGGTAGTGGGTGCAGATATCTAT	4270
GTCTTGTCTCATTTTCACGTGATCTTCCCCACTTCA	11800
AACGCGTCTTAAAAGAATGTGACAGGAGATGGGATG	5220
TGCGCAACAACTTGAGGTGTGGGTGTATGTCTAGAA	6340
GAACTGCCACCTCACCACGTGTGTTCCTCGCAAGCC	15300
ATGTACCGTTCAAGCCACCTGACATTATACCACCAG	5590
TTTTTAGTAGTTTGTCATGCTGTATTAATGATTTTC	4610
ACCTTAACGCGAAAACGCGTGAAATTGAAATTTAGC	5530
CTAACGAAGGTTTGCCACGTGGGTGACAAGCCAAGT	16900
CTTTCCCGATCTTGGAAAGTGGGTGTAGCACATTTG	4170
GCAACACTAGAGTCCCACGTGGAAGCTGGGGTACCC	15000
GTCTTGTCTCATTGATTTGTGGGTGTCCCCACTTCA	4320
ATGCCCTGCTATCTTCACGTGGTCGAATAGCTTATT	17100
AAATTACTAAGTTGATTTGTGGGTGACGCCGTATGA	3790

Study 3 — method: RNA Bind-n-Seq; form: RNA; medium: in vitro; concentration: 365 nM; relative to: no-protein control; reading: higher = stronger binding
Target: RNA binding protein fox-1 homolog 2, RRM domain, GST-SBP tag (RBFOX2, Homo sapiens, UniProt O43251-10, residues 100-194)
Notes: natural RNA segment, single round, ends assumed
All sequences stand within: GGGAGUUCUACAGUCCGACGAUC … UGGAAUUCUCGGGUGCCAA
Strand	RBNS enrichment (R)
AGAGUCAAUCAAAUCCUUGUGAUGUUUUGUAUGGACUUUGACAAUAUGUAAAUAAUGUGUAAAGCCAGUUUUUAUGAUUAAGGAAUCAAAUUUAUUGAAUUUUAUUAUUG	0.427
UUGGUAUUACUCUGAAACAAAAUUUAAGUUGGAGUUUCAGGGAUUUAGGGAGUAGUUUUCAUUCUACAUGAACUGAGGUAAUAUUAUGGUAACUCCAAUAUUUGGUUAAA	0.521
GUCUAGUGCCCAGCUGCUGACAAUAAAAGCUCCAACUCUUUUAGAGAUCAGUGGAAUUUAGAAGCAUCUUACAGGUAUCAAGGAAUUGAGCUUCUAGAGGGAUGGUUUGG	0.589
CAGGAGGCCGGCCCUGUUCUCUGUACUCAGCAUUUUGACAUCUCCUUUGAAGGCCAGGUAUAUGUGUACCAGUGCUCUUCAAAGGGAGAACCAUUAAAACCAACAUGGAA	1.22
GAGGCCUUUGAGUUCCCACUCAAUACCUCUCCCUCUUUACAGAAGAGAGGGGUGGGGGGAGCCUUGGUUGGUCUGAGCAGUGGCUGUGAAAUCCUCCCAAUGGGCACAGA	0.386
UGUGUGGGUGUGUGUAUGUGUAUUGGGGGUUUUGUUUUGCUUUGCUUUUAAAUAUACAAGGGGUUCUUCUUUAAAUAGAGGAAAAGGUUAAUCCUCUCCAGCAGGAUGCC	0.626
GACAGAAAUUACCAUUUAGUUUCUUAAAUGUAAAAAAAGAAAACCCACAAAAGACUCAACAAAAUUAGACCACAAAAUUUGCAUUGUUCAUUGUAGCACUAUUGGUAAUA	1.02
UUAAAUGAAAAUUCUUCAGAAAAAGUUUGAUAAAUUGAAUUGUGGUUAUGAAACUAAUUUGCAUUUUUAUUUGCUUAAGAAAGAAAGCUGUGAUAGAUUCCAGAUAUGCU	3.89

Study 4 — method: RNA Bind-n-Seq; form: RNA; medium: in vitro; concentration: 1 µM; notes: whole 134-nt RNA, ends assumed; together with: 150 mM KCl; relative to: input library; reading: higher = stronger binding
Target: Ras GTPase-activating protein-binding protein 1, C-terminal RGG region (G3BP1, Homo sapiens, UniProt Q13283)
Chain of UniProt Q13283 (whole entry, looked up): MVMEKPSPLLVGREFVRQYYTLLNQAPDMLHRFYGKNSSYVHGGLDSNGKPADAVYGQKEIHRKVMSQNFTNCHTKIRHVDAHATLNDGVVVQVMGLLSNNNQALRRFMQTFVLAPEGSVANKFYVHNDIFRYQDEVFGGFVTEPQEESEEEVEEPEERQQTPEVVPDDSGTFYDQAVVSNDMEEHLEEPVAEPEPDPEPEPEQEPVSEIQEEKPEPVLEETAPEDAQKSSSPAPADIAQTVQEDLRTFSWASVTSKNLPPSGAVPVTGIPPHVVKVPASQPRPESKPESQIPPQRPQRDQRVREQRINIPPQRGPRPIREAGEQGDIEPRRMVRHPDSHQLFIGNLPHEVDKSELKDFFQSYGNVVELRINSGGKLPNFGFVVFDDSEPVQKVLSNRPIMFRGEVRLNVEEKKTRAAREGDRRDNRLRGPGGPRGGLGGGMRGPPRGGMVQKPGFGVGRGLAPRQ
All sequences stand within: GGGAGUUCUACAGUCCGACGAUC … UGGAAUUCUCGGGUGUCAAGG
Strand	log2 enrichment
UCCUCAAGUCCUGUGCUACACAUCGUAUGUACCGAAUCGGGAGGGAGGAGGGAAAGUAUUAUGUUACGCCGUUCGGAUCUGCACUUCCAG	0.579
AAGUCCUGUGCUACACAUCGUAUGUACCGAAUCGGGGAGGGGAAAAAGGGGAGGGGAAAGUAUUAUGUUACGCCGUUCGGAUCUGCACUU	2.53
UCCUGUGCUACACAUCGUAUGUACCGAAUCGGGAAAGGGAAAAAAAGGGUUUUUUUGGGAAAGUAUUAUGUUACGCCGUUCGGAUCUGCA	-0.734
UAACUUUAGAGGAGGAUCUGAUGGAUAUGGCAGUGGACGUGGAGUUGGGGAUGGCUAUAAUGGGUAUGGAGGAGGACCUGGAGGUGGCAA	-0.816
CAAGUCCUGUGCUACACAUCGUAUGUACCGAAUCGGAGGAAAAAAAGGAAAAAGGAAAGUAUUAUGUUACGCCGUUCGGAUCUGCACUUC	-2.04
UCCUGUGCUACACAUCGUAUGUACCGAAUCGGGGCCCCCGGGGCCCCCGGGCCCCCGGGAAAGUAUUAUGUUACGCCGUUCGGAUCUGCA	-2.14
UCAAGUCCUGUGCUACACAUCGUAUGUACCGAAUCGGUUUUUGGAAAGGUUUGGAAAGUAUUAUGUUACGCCGUUCGGAUCUGCACUUCC	-1.3
CUCAAGUCCUGUGCUACACAUCGUAUGUACCGAAUCGGAAGGGAAGGGGAAGGGAAAGUAUUAUGUUACGCCGUUCGGAUCUGCACUUCC	0.105
UCAAGUCCUGUGCUACACAUCGUAUGUACCGAAUCGGGUUUGGUUUGGGUUUGGGAAAGUAUUAUGUUACGCCGUUCGGAUCUGCACUUC	-1.31
